Experimental data collected from several papers.
Each numbered part is a random draw from the data of one study; scales do not carry over between parts. Positions count from the first letter of the parent shown.

Set 1
Target: Prothrombin, mature alpha-thrombin (F2, Homo sapiens, UniProt P00734)
Method: aptamer microarray, sandwich
Molecule type: DNA with 2'F-ANA
Matrix: in vitro
Tested at: 200 nM
Notes: whole 15-mer aptamer, many near background
Together with: Cy3 exosite-II aptamer, 400 nM
Reading: higher = stronger binding
Sequence: GGTTGGTGTGGTTGG
Under “mean fluorescence intensity”, `2'F-ANA at 2 7 8 9 15` is recorded as 506 a.u.
`2'F-ANA at 2 5 6 7 9 13 14 15` — result for “mean fluorescence intensity”: 47.3 a.u.
Under “mean fluorescence intensity”, `2'F-ANA at 3 5 6 7 8 9 13 14` is recorded as 64.6 a.u.
`2'F-ANA at 2 6 7 10 14`: “mean fluorescence intensity” 89.5 a.u.
Under “mean fluorescence intensity”, `2'F-ANA at 2 5 6 9` is recorded as 93.2 a.u.
`2'F-ANA at 4 5 6 8 9 11 12 13 15`: “mean fluorescence intensity” 72.9 a.u.
`2'F-ANA at 3 10 11 12 14`: “mean fluorescence intensity” 401 a.u.

Set 2
Target: CCNA2, cyclin fold, Cln2 fusion (human)
Method: yeast growth competition, sequencing
Matrix: yeast
Notes: strong parent motif
Baseline: not given
Reading: higher = stronger binding
Starting sequence: GMNC docking peptide (human); KNAKRNLSSEFAN
`S9C` — result for “normalised enrichment score”: 4.85.
`S8P`: “normalised enrichment score” 0.48.
`S8Q`: “normalised enrichment score” 5.08.
For `K4H`, “normalised enrichment score” read 2.66.
`F11K` — result for “normalised enrichment score”: 0.193.

Set 3
Target: Interferon regulatory factor 5, full length, phosphomimetic (IRF5, Homo sapiens, UniProt Q13568-2, residues 1-514, S451D/S453D/S456D/S462D)
Method: protein-binding microarray
Molecule type: double-stranded DNA, one strand shown
Matrix: in vitro
Tested at: 940 nM top
Notes: 60-bp whole probe
Together with: salmon DNA 0.4 mg/ml
Baseline: random background probes
Reading: higher = stronger binding
All sequences stand within: GCCTAGCAC … GTGCTAGGTCTTGATTCGCTTGACGCTGCTG
`GGTGGTGATGGTGAGTAAGA` — result for “fitted relative affinity”: -0.221 z-score.
`TTTTCATTTTTTTTCATCAT` — result for “fitted relative affinity”: 2.43 z-score.
Under “fitted relative affinity”, `TCAATTTTTTTTTTCATACT` is recorded as 1.58 z-score.
`TAAGGTATCCTTCTCCTTTA`: “fitted relative affinity” 0.271 z-score.
For `TTAGGTTTCGGTCTCGGTTG`, “fitted relative affinity” read 15.5 z-score.

Mixed results
The fold induction of `PhoQ, residues 284 288 289 292 302 303 SLSLLA` is reported as 6.22 (PhoP, residues 12 14 15 18 19 SEGLL (Escherichia coli, UniProt P23836); Sort-seq, item: YFP reporter; E. coli; PhoQ-PhoP variant library, together with: 10 µM Mg2+; baseline: high Mg2+ state, higher = stronger signaling).
